{"data": "Published values of several laboratories", "note": "Every numbered part comes from another study and shows a few of its results, in no order."}
{"data": "Set 1", "target": "Histone acetyltransferase KAT6A, winged helix 1, GST fusion (KAT6A, Homo sapiens, UniProt Q92794, residues 1-85)", "method": "protein binding microarray", "molecule type": "double-stranded DNA, one strand shown", "medium": "in vitro", "concentration": "not given", "notes": "8-mer, flanks averaged, mean of 2 arrays, mostly near background", "baseline": "not given", "reading": "higher = stronger binding", "Residues (chain)": "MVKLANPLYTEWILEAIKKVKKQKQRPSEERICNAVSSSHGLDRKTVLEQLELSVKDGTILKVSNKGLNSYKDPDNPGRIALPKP"}
{"Sequence": "AACTTGTC", "E-score": 0.0345}
{"Sequence": "CATTAGAG", "E-score": -0.187}
{"Sequence": "ATTGTCCA", "E-score": -0.142}
{"Sequence": "TACGCGAA", "E-score": 0.233}
{"Sequence": "GCAGGTGA", "E-score": -0.211}
{"Sequence": "AGGTCGTG", "E-score": -0.27}
{"Sequence": "CCAGCTGG", "E-score": -0.252}
{"Sequence": "GACAAATA", "E-score": -0.201}
{"Sequence": "AAGACCCA", "E-score": -0.148}
{"Sequence": "CCCGATTA", "E-score": 0.16}
{"Sequence": "AATGTCGG", "E-score": 0.219}
{"Sequence": "CGTGCTTA", "E-score": -0.000825}
{"Sequence": "CCGTAGCA", "E-score": 0.265}
{"data": "Set 2", "target": "Ras GTPase-activating protein-binding protein 1, full length (G3BP1, Homo sapiens, UniProt Q13283)", "method": "RNA Bind-n-Seq", "molecule type": "RNA", "medium": "in vitro", "concentration": "200 nM", "notes": "whole 134-nt RNA, ends assumed", "together with": "150 mM KCl", "baseline": "input library", "reading": "higher = stronger binding", "constant ends, left off below": "GGGAGUUCUACAGUCCGACGAUC … UGGAAUUCUCGGGUGUCAAGG", "sequence of UniProt Q13283 (whole entry, looked up)": "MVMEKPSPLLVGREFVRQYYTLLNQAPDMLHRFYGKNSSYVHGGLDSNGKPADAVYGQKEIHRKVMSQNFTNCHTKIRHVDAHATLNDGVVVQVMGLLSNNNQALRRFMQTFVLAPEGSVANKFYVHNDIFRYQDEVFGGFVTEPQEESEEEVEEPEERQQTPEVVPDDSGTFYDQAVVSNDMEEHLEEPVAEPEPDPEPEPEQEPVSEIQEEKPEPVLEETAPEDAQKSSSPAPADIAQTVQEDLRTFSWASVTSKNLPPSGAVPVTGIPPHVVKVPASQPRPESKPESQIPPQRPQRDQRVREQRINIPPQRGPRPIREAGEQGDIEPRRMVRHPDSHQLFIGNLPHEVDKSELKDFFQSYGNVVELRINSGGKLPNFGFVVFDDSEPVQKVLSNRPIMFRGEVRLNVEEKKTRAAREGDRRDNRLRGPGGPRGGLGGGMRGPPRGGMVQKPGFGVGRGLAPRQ"}
{"Sequence": "UGGGAGGUGGAUUUUGUUUAUUUUUUUAGCUCAUUUCCAGGGGUGGGAAUUUUUUUUUAAUACGUGUCAUGAAUAAAGUUGUUUUUGAAA", "log2 enrichment": 0.153}
{"Sequence": "GUCCUGUGCUACACAUCGUAUGUACCGAAUCAAAUUUAAAUUUUUUUAAAUUUUUAAAAAAGUAUUAUGUUACGCCGUUCGGAUCUGCAC", "log2 enrichment": -1.53}
{"Sequence": "UCCUGUGCUACACAUCGUAUGUACCGAAUCAAACCCCCCCAAACCCCCAAACCCCCAAAAAAGUAUUAUGUUACGCCGUUCGGAUCUGCA", "log2 enrichment": 0.161}
{"Sequence": "ACCAUGCAGGUGGGCAUCAAAGGGAAGUGGGGCAAGGGGGGGAUAGGGAGGGGGGUAACACUUUGGGAACAGGUGGUCCCAGGUCGUUUC", "log2 enrichment": 1.11}
{"Sequence": "UUCCUCAAGUCCUGUGCUACACAUCGUAUGUACCGAAUCGGAGGAGGAGGAAAGUAUUAUGUUACGCCGUUCGGAUCUGCACUUCCAGCA", "log2 enrichment": -0.972}
{"Sequence": "GUCCUGUGCUACACAUCGUAUGUACCGAAUCGGGAAAAAAGGAAAAAAGGAAAAAAGGAAAGUAUUAUGUUACGCCGUUCGGAUCUGCAC", "log2 enrichment": -0.637}
{"Sequence": "UGGGAGGUGGAUUUUGUUUAUUUUUUUAGCUCAUUUCCAGGGGUGGGAAUUUUUUUUUAAUAUGUGUCAUGAAUAAAGUUGUUUUCGAAA", "log2 enrichment": 0.456}
{"Sequence": "UAACUUUAGAGGAGGAUCUGAUGGAUAUGGCAGUGGACGUGGAUUUGGGGAUGGCUAUAAUGGGUAUGGAGGAGGAUCUGGAGGUGGCAA", "log2 enrichment": 0.39}
{"Sequence": "UCAAGUCCUGUGCUACACAUCGUAUGUACCGAAUCGGUUUGGAAAAAAAGGAGGAAAGUAUUAUGUUACGCCGUUCGGAUCUGCACUUCC", "log2 enrichment": -0.578}
{"Sequence": "UGGCCCUGGUGGCAUGCGGGGAGGAAGAGGUGGCCUCAUGGAUCGUGGUGGUCCCGGUGGAAUGUUCAGAGGUGGCCGUGGCGGAGACAG", "log2 enrichment": 0.358}
{"Sequence": "GCAGGUAGUAAAAACAAAUGGAAAUGCUUCGGAUAGUGGCAGGGGUGGGGGUUGCUAAGGAAAGGGUGGGAUGGGAGUGGGUAAAGAGUU", "log2 enrichment": 1.01}
{"Sequence": "UAACUUUAGAGGAGGAUCUGAUGGAUAUGGCAGUGGACGUGGAUUUGGGGAUGGCUAUAAUGGGUAUGGAGGAGGACCUGGAGGUGGCUA", "log2 enrichment": 0.385}
{"data": "Set 3", "target": "Interferon regulatory factor 3, full length, phosphomimetic (IRF3, Homo sapiens, UniProt Q14653, residues 1-427, S386D/S396D/S398D/S402D/T404D/S405D)", "method": "protein-binding microarray", "molecule type": "double-stranded DNA, one strand shown", "medium": "in vitro", "concentration": "2540 nM top", "notes": "60-bp whole probe", "together with": "salmon DNA 0.4 mg/ml", "baseline": "random background probes", "reading": "higher = stronger binding", "constant ends, left off below": "GCCTAGCAC … GTCTTGATTCGCTTGACGCTGCTG", "Construct (chain)": "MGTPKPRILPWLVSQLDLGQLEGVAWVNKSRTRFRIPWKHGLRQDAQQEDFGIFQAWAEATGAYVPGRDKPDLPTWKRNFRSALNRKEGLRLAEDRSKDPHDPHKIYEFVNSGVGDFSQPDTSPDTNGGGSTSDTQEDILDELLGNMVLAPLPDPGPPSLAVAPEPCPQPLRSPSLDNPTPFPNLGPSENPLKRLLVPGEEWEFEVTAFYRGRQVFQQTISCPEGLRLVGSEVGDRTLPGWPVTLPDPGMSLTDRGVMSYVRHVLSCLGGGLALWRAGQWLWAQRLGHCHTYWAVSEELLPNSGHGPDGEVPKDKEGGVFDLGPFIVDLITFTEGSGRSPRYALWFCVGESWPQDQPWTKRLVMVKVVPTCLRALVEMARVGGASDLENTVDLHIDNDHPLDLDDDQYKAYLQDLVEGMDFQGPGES"}
{"Sequence": "TCATGCATGTTTTTGACACTGTGCTAG", "fitted relative affinity [z-score]": -0.000443}
{"Sequence": "TTATGACTGGACACTGGGTTAGTGCTA", "fitted relative affinity [z-score]": -0.441}
{"Sequence": "GACGAACTGAGGCTGGAGACGTGCTAG", "fitted relative affinity [z-score]": -0.577}
{"Sequence": "TTAGCACTGGACTATCGGTTAGTGCTA", "fitted relative affinity [z-score]": -0.557}
{"Sequence": "TTAGAACTGAGCCTCGATTAGTGCTAG", "fitted relative affinity [z-score]": -0.511}
{"Sequence": "TTATATCTGTGTTATTAAATTGTGCTA", "fitted relative affinity [z-score]": 0.327}
{"Sequence": "GACGGTATCCTTTGCCTGACGTGCTAG", "fitted relative affinity [z-score]": 2.63}
{"Sequence": "TTAGAATTCAGTCTCGATTAGTGCTAG", "fitted relative affinity [z-score]": 1.01}
{"Sequence": "GACTGTATCCTTCTCCTGACGTGCTAG", "fitted relative affinity [z-score]": 7.12}
{"data": "Other studies, line by line"}
{"Molecule": "PhoQ, residues 284 288 289 292 302 303 WSHMKI", "target": "PhoP, residues 12 14 15 18 19 QQAYL (Escherichia coli, UniProt P23836)", "assay": "Sort-seq, measured: YFP reporter", "system": "E. coli", "conditions": "PhoQ-PhoP variant library, together with: 10 µM Mg2+", "how to read": "baseline: high Mg2+ state, higher = stronger signaling", "measurement": "fold induction", "result": 13.5}
{"note": "A few entries again (set 2):"}
{"Sequence": "UGGGAGGUGGAUUUUGUUUAUUUUUUUAGCUCAUUUCCAGGGGUGGGAAUUUUUUUUUAAUACGUGUCAUGAAUAAAGUUGUUUUUGAAA", "log2 enrichment": 0.153}
{"Sequence": "GUCCUGUGCUACACAUCGUAUGUACCGAAUCAAAUUUAAAUUUUUUUAAAUUUUUAAAAAAGUAUUAUGUUACGCCGUUCGGAUCUGCAC", "log2 enrichment": -1.53}
{"Sequence": "UCCUGUGCUACACAUCGUAUGUACCGAAUCAAACCCCCCCAAACCCCCAAACCCCCAAAAAAGUAUUAUGUUACGCCGUUCGGAUCUGCA", "log2 enrichment": 0.161}
{"Sequence": "ACCAUGCAGGUGGGCAUCAAAGGGAAGUGGGGCAAGGGGGGGAUAGGGAGGGGGGUAACACUUUGGGAACAGGUGGUCCCAGGUCGUUUC", "log2 enrichment": 1.11}
